Measurements from different studies.
A part holds a random share of what one study measured.
Sequence of UniProt Q00535 (whole entry, looked up): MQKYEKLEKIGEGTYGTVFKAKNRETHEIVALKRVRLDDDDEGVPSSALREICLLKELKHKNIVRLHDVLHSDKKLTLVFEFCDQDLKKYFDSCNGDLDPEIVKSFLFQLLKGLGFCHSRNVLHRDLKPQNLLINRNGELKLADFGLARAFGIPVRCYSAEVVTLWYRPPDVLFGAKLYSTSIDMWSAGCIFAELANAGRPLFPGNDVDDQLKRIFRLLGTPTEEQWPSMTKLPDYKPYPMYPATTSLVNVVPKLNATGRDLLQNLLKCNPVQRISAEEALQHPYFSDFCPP
Sequence of UniProt P29376 (whole entry, looked up): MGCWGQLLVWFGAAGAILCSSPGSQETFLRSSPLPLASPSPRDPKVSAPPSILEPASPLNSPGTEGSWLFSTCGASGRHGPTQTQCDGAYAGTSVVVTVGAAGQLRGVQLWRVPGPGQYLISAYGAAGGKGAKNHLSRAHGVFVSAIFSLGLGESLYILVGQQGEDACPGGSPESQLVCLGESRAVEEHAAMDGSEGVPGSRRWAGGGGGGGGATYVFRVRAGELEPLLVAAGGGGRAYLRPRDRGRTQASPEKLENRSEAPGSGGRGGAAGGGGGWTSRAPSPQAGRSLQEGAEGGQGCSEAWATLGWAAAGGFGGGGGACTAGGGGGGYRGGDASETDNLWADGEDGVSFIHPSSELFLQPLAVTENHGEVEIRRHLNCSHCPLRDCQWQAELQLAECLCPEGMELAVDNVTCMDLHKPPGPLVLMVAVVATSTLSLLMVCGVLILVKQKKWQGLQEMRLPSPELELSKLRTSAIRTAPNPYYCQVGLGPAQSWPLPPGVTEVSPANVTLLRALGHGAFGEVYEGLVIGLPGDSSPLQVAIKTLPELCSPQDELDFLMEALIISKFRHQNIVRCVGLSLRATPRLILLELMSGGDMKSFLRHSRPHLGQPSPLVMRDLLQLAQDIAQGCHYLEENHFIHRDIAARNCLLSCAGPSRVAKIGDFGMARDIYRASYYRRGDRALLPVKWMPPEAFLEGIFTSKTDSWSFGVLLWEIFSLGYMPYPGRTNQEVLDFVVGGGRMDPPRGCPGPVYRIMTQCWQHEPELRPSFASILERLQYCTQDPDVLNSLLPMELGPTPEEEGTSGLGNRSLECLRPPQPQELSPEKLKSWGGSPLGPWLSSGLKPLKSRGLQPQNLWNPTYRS
Sequence of UniProt Q14012 (whole entry, looked up): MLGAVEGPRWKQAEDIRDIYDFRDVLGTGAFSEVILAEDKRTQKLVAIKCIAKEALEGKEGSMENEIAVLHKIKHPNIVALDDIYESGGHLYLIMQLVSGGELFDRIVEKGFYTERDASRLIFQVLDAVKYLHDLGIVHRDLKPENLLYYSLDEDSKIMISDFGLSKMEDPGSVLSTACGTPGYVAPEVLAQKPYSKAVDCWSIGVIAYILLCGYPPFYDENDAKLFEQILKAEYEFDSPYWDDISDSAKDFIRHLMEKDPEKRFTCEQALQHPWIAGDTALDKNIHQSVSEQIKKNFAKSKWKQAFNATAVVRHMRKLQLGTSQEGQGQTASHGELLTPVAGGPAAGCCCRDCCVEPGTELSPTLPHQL
Sequence of UniProt Q96J92 (whole entry, looked up): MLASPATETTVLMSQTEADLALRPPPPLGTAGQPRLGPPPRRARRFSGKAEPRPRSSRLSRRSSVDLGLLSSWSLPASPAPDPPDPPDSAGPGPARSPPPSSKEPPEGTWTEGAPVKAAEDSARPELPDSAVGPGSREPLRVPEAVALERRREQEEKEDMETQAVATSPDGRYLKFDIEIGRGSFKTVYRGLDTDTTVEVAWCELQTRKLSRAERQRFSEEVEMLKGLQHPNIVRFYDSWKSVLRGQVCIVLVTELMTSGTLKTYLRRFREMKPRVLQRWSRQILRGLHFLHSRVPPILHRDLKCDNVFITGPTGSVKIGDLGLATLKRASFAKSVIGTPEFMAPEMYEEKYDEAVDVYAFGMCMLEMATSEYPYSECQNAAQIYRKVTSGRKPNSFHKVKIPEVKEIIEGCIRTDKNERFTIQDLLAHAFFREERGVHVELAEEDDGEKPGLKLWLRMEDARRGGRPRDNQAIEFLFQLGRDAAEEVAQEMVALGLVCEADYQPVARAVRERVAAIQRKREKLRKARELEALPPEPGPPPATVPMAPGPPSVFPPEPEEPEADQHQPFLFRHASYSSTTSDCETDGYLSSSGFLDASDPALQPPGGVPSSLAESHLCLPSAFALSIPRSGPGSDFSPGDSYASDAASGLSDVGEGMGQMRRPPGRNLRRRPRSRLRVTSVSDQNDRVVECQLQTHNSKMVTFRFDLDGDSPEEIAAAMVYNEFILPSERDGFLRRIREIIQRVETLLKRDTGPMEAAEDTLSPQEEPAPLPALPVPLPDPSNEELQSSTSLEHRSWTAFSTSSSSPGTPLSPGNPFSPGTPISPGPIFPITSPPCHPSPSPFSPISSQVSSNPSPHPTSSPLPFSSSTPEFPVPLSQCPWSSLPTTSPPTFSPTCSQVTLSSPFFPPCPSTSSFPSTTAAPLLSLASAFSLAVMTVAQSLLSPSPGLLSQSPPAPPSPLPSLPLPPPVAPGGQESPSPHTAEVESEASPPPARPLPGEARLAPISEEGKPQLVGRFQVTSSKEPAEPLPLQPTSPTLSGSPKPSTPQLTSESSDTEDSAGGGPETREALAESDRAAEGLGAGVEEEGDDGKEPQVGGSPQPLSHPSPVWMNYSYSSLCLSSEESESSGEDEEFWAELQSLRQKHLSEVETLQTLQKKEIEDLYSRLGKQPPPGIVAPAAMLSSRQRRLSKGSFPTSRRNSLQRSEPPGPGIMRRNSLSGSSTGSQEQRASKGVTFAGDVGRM
Sequence of UniProt P51812 (whole entry, looked up): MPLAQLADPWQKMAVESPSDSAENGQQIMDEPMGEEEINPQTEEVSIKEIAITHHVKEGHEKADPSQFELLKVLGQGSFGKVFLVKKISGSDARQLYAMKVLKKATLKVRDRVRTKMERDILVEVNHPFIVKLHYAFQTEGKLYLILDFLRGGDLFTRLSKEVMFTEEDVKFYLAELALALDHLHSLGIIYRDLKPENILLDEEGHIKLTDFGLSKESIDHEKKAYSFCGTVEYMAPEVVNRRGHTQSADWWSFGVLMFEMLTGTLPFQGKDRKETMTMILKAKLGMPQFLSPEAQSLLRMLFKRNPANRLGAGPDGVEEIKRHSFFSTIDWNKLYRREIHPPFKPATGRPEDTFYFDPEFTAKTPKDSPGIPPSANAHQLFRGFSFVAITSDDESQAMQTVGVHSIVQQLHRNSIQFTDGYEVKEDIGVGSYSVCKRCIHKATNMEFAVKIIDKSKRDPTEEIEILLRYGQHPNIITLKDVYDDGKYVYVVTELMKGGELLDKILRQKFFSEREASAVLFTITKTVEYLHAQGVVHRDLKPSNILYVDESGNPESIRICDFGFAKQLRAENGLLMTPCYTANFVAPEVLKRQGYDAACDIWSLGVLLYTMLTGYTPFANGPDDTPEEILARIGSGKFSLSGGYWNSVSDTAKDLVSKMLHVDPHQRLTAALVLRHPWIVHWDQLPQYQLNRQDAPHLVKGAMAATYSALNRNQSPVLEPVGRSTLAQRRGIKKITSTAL
Sequence of UniProt Q8N568 (whole entry, looked up): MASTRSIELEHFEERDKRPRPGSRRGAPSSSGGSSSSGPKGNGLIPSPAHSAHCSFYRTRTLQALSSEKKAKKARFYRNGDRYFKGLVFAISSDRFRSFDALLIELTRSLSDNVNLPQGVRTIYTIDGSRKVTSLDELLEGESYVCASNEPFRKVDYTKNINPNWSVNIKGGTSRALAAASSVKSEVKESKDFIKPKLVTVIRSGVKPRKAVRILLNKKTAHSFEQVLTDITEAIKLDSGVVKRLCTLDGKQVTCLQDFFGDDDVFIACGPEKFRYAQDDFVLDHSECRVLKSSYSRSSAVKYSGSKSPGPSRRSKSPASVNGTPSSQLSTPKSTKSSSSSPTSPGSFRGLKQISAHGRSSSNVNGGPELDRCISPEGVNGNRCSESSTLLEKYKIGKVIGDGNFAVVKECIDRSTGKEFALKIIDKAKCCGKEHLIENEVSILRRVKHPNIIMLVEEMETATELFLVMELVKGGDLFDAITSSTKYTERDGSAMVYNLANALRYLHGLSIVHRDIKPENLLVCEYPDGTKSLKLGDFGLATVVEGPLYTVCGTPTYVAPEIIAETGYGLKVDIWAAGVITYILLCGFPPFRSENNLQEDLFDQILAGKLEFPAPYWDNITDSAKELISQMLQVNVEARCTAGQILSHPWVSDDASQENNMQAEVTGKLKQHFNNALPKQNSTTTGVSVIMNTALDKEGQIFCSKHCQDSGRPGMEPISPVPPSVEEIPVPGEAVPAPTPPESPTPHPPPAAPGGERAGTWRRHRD
Sequence of UniProt Q9Y2H1 (whole entry, looked up): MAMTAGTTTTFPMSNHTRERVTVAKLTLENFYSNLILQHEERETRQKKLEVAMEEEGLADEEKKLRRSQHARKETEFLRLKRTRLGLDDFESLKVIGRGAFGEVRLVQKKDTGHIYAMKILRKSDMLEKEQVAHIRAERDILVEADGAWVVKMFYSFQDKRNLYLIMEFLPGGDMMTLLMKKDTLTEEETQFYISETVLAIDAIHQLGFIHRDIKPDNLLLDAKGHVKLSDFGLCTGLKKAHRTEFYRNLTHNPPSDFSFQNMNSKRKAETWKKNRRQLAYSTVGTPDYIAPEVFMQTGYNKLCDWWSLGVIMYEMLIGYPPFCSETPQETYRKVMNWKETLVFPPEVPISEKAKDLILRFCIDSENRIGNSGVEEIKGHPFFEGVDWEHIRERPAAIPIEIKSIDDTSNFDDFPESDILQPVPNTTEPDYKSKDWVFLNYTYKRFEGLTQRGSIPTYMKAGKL

Study 1 — SMILES: CCN1/C(=C/C(C)=O)Sc2ccc(OC)cc21; effect on: enzyme activity; mode: inhibitor; concentration: 0.5 µM; baseline: control
| target | remaining activity [%] |
| --- | --- |
| DAPK2 (Homo sapiens, UniProt Q9UIK4) | 90.3 |
| CHEK2 (Homo sapiens, UniProt O96017) | 104 |
| OXSR1 (Homo sapiens, UniProt O95747) | 93.5 |
| STK39 (Homo sapiens, UniProt Q9UEW8) | 95.9 |
| MAP3K3 (Homo sapiens, UniProt Q99759) | 114 |
| Cyclin-dependent kinase 5, with p25 (CDK5, Homo sapiens, UniProt Q00535) | 87.9 |
| IKBKB (Homo sapiens, UniProt O14920) | 102 |
| cGMP-dependent protein kinase 1, isoform beta (PRKG1, Homo sapiens, UniProt Q13976) | 87 |
| DAPK1 (Homo sapiens, UniProt P53355) | 109 |

Study 2 — effect on: enzyme activity; mode: inhibitor; technique: ADP-Glo
SMILES: CN(C(=O)c1ccn2ncc(-c3ccc(C(N)=O)cc3)c2c1)c1ccc(C#N)cn1
Target: Phosphatidylinositol 4-kinase (Cryptosporidium parvum, UniProt Q5CVD3)
| concentration | inhibition [%] |
| --- | --- |
| 3.05e-06 µM | 17.3 |
| 0.006667 µM | 100 |
| 0.000741 µM | 98.8 |
| 0.002222 µM | 99.4 |

Study 3 — technique: competition with immobilised ligand; concentration: 1 µM
Compound: CC(=O)Nc1c(C(C)=O)c(=O)n(C)c2nc(-c3ccc(Cl)cc3Cl)c(-c3ccc(Cl)cc3)cc12
| target | effect on | remaining binding |
| --- | --- | --- |
| PAK1 (Homo sapiens, UniProt Q13153) | cell-free assay | 100% |
| SGK2 (Homo sapiens, UniProt Q9HBY8) | cell-free assay | 100% |
| LYN (Homo sapiens, UniProt P07948) | cell-free assay | 100% |
| STK38L (Homo sapiens, UniProt Q9Y2H1) | cell-free assay | 87% |
| Ribosomal protein S6 kinase alpha-3, C-terminal kinase domain (RPS6KA3, Homo sapiens, UniProt P51812) | cell-free assay | 99% |
| FER (Homo sapiens, UniProt P16591) | cell-free assay | 88% |
| CAMK2D (Homo sapiens, UniProt Q13557) | cell-free assay | 100% |
| CAMK1 (Homo sapiens, UniProt Q14012) | cell-free assay | 100% |
| WNK4 (Homo sapiens, UniProt Q96J92) | cell-free assay | 100% |
| LTK (Homo sapiens, UniProt P29376) | cell-free assay | 100% |
| INSRR (Homo sapiens, UniProt P14616) | cell-free assay | 100% |
| Tyrosine-protein kinase JAK3, JH1 (JAK3, Homo sapiens, UniProt P52333) | cell-free assay | 100% |
| STK11 (Homo sapiens, UniProt Q15831) | binding | 43% |
| DCLK2 (Homo sapiens, UniProt Q8N568) | cell-free assay | 100% |
| FLT1 (Homo sapiens, UniProt P17948) | cell-free assay | 100% |

Study 4 — technique: phase 2a trial
SMILES: CC(C)n1cnc(-c2ccc(F)cc2)c1-c1ncc(C(=O)Nc2ccc(N3CCN(C)CC3)cc2)[nH]1
| species | route | dose | setting | patients with TEAE [%] |
| --- | --- | --- | --- | --- |
| patients with idiopathic pulmonary fibrosis | – | 60 mg once daily | atopic dermatitis, grade 2 | 0 |
| patients with idiopathic pulmonary fibrosis | – | 30 mg once daily | nervous system disorders SOC, grade 4 | 0 |
| idiopathic pulmonary fibrosis patients | oral | 60 mg once daily | urine red cells, grade 4 | 0 |
| patients with idiopathic pulmonary fibrosis | – | 30 mg once daily | renal and urinary disorders SOC, grade 4 | 0 |
| idiopathic pulmonary fibrosis patients | oral | 30 mg once daily | disc protrusion, grade 3 | 0 |
| patients with idiopathic pulmonary fibrosis | – | 60 mg once daily | endocrine disorders SOC, grade 3 | 0 |
| patients with idiopathic pulmonary fibrosis | – | dose not given | allergic conjunctivitis, grade 4, all arms | 0 |
| idiopathic pulmonary fibrosis patients | oral | 60 mg once daily | disc protrusion, grade 2 | 0 |
| patients with idiopathic pulmonary fibrosis | – | 60 mg once daily | skin papilloma, maximum intensity grade 1 | 0 |
| idiopathic pulmonary fibrosis patients | oral | dose not given | ESR increased, grade 5, all arms | 0 |

Excerpt of the above (study 1):
| target | remaining activity [%] |
| --- | --- |
| cGMP-dependent protein kinase 1, isoform beta (PRKG1, Homo sapiens, UniProt Q13976) | 87 |
| DAPK1 (Homo sapiens, UniProt P53355) | 109 |
